# Measured values collected from several papers.
# Numbered parts are unrelated; each lists some results of a single study.

# Series 1
# Target: Histone acetyltransferase KAT6A, winged helix 1, GST fusion (KAT6A, Homo sapiens, UniProt Q92794, residues 1-85)
# Technique: protein binding microarray
# Form: double-stranded DNA, one strand shown
# Sample: in vitro
# Tested at: not given
# Notes: 8-mer, flanks averaged, mean of 2 arrays, mostly near background
# Baseline: not given
# Reading: higher = stronger binding
# Construct (chain): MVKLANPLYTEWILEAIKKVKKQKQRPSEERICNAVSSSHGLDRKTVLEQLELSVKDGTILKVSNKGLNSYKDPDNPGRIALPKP
Oligonucleotide,E-score
GCGGTGAA,0.231
CACGCGTG,0.283
GAATGCCC,0.0268
CGCCATCA,0.0786
GACGGACC,0.163
ATTGAGCC,-0.0111
GCACGTAA,-0.000645
GACTCGGC,0.184
ACCAGAAC,-0.14
ACAGTAAA,-0.111
CCTGATGA,-0.143
AGTTGTTA,-0.065
TGGGAAAA,-0.214
ACCAGTCT,-0.0487
GCTAGAGA,-0.123
ACTCCTCA,-0.186
ATATAGAC,-0.0328
AAAGACAC,-0.2
AGCAAGCT,-0.283
AGTCCTAG,-0.235
CTAGCCGA,0.112
ATTTCGTC,-0.00971
ACCATTAC,0.00284
ATCTTGCC,0.00085

# Series 2
# Target: Sal-like protein 4, full length isoform B (SALL4, Homo sapiens, UniProt Q9UJQ4-2, residues 1-616)
# Technique: universal PBM
# Form: double-stranded DNA, one strand shown
# Sample: in vitro
# Tested at: not given
# Notes: 8-mer, flanks averaged, mean of replicates
# Reading: higher = stronger binding
Oligonucleotide,E-score
ACAACCAA,0.0231
CCAAAGTC,-0.0546
GTTTGCTA,0.00062
GGTGGTCA,-0.187
CGAAGCCA,-0.0989
GAGCCATC,-0.281
AGCCAGGC,-0.302
CGGAACGA,-0.14
AATTGCTC,-0.077
ATAGTTTG,0.225
AGACTGCG,-0.209
CTGGGGCC,-0.373
CGGAGAAG,-0.221
TGCGACCA,-0.104
CAGTCGGG,-0.227
GCATAAGA,0.101
GGAGTGGA,-0.00109
AGATGTTC,0.0706
CTATCCCC,-0.172
CGAACGCC,-0.269
ATTATGGC,0.215
GTGGTATA,0.146

# Series 3
# Target: RNA binding protein fox-1 homolog 2, RRM domain, GST-SBP tag (RBFOX2, Homo sapiens, UniProt O43251-10, residues 100-194)
# Technique: RNA Bind-n-Seq
# Form: RNA
# Sample: in vitro
# Tested at: 365 nM
# Notes: natural RNA segment, single round, ends assumed
# Baseline: no-protein control
# Reading: higher = stronger binding
# All sequences stand within: GGGAGUUCUACAGUCCGACGAUC … UGGAAUUCUCGGGUGCCAA
Oligonucleotide,RBNS enrichment (R)
UGAGUAAACUCUAAAUUGUUAAAUAUUUAUGCUGCUAUAAAUUAGAAUUACCUAUUCUACGUGCCUUUUCUUAGGAAAAGAGAGUACUGGAUCAUGGUUUUCUUCCUUAC,0.809
CCUUGAGUGUGGCACCUCCCCUCCCAAGCCCCCCUUGACAUCCUCUCAGCUACUCCAGGGCACCUGACUGCUCUGAGGAGAGGGAAGAAGGCCUGCUGGGGCUUUCCAUG,1.49
GAUGUGUUUACAGGUCCCUGUAAGCAGUGUUAGGUCCAUAGGCUUUUAUGACUCCAGUCUGCAAGCAGUGUUAGGUUGACCUCAUAGGCUUUUAUGAUUCCAGUCUGCUG,0.525
CACCUGUAGUCCCAGCUGCUUGGGAGGCUGAGGUGGGAGGAUGGCUAGAGCCCAGGAGAUGGGUGUUGCAGUGAGCUGAGACCAUGCCACUGUACUCUAGCCUGGGUAAC,0.362
UAAGGCUAGAGUAUUUUAUAUAAAUAGAAGAGCUUAGGUCCUGAAGACCAAGGCAGAUAGAUGCAGCUAUGUGUACAUUGUAUAUUUUUGUGAACUUCUCAAGCACGCAC,0.553
UCGAGCUGUCUUUUAACUUUUGUAUGUGUUUUAUCAGAAUUUGCUGGACUAUGCUGGCAAGGACUUUGUUUACGAUCAAAUUGUACUAGUGUCUGCAGGGUUUGUCAGUA,0.791
AUUGGUCAUGUGUGUAUUUUUCCAUAGUCCCACCUUGGAGCAUUUAUGUAGACAUUGUAAAUAAAUUUUGUGCAAAAAGGACUGGAAAGAUGAACUGUAUUAUUGCAUUU,3.14
AGUAGGAUAUUUCUUUAGAUUGCCACUUUUUUUAUUCCAGUUGUUUUAGGAAUAAAUGUCAGAUUUUAAAAGUCUUCUAUUUCCCAAUGAUCUCUGAAGUUUAGUAUUUU,0.784

# Series 4
# Target: Ras GTPase-activating protein-binding protein 1, C-terminal RGG region (G3BP1, Homo sapiens, UniProt Q13283)
# Chain of UniProt Q13283 (whole entry, looked up): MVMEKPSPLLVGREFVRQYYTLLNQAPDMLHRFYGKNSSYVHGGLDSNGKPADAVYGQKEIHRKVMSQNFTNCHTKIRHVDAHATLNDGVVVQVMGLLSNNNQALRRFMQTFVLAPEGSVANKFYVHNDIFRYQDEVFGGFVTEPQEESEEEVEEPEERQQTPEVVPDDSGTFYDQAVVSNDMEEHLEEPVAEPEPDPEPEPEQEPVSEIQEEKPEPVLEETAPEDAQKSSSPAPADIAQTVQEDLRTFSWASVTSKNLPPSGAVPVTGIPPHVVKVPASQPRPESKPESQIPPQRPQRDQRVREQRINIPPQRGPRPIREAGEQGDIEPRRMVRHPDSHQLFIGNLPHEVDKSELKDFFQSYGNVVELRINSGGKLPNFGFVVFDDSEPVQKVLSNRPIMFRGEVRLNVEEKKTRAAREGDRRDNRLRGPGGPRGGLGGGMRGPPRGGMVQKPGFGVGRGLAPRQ
# Technique: RNA Bind-n-Seq
# Form: RNA
# Sample: in vitro
# Tested at: 1 µM
# Notes: whole 134-nt RNA, ends assumed
# Together with: 150 mM KCl
# Baseline: input library
# Reading: higher = stronger binding
# All sequences stand within: GGGAGUUCUACAGUCCGACGAUC … UGGAAUUCUCGGGUGUCAAGG
Oligonucleotide,log2 enrichment
UGCCUGGCCCAGUGCUGGGUUUGCCUUGUUGACGAUGCGCUUGGAUUGUUAAGGACACCGAUGUUCAGAACCCGGGAAGAGUCAUCUUAA,-2.49
AAGUCCUGUGCUACACAUCGUAUGUACCGAAUCGGGGAAAGGGAAAGGGAAAGGGGAAAGUAUUAUGUUACGCCGUUCGGAUCUGCACUU,0.887
UGUGCUACACAUCGUAUGUACCGAAUCGGGGCCCCCCCGGGGCCCCCCCGGGCCCCCCCGGGAAAGUAUUAUGUUACGCCGUUCGGAUCU,-2.43
ACCAUGCAGGUGGGCAUCUUUGGGAAGUGGGGCAAGGGGGGGAUAGGGAGGGGGGUAACACUUUGGGAACAGGUGGUCCCAGGUCCUUUC,2.11
CCUGUGCUACACAUCGUAUGUACCGAAUCGGGGAAAGGGGAAAAAGGGGUUUUUUUGGGGAAAGUAUUAUGUUACGCCGUUCGGAUCUGC,0.831
UCCUGUGCUACACAUCGUAUGUACCGAAUCGGAAAAAAGGGAAAAAAGGGGAAAAAAGGGAAAGUAUUAUGUUACGCCGUUCGGAUCUGC,-1.31
GCAGGAAGUAAAAACAAAUGGAAAUGCUUCGGAUAGUGGCAGGGGUGGGGGUUGCUAAGGAAAGGGUGGGAUGGGAGUGGGUAACGAGUU,0.673
CCUCAAGUCCUGUGCUACACAUCGUAUGUACCGAAUCGGAAGGGAAGGAAGGAAAGUAUUAUGUUACGCCGUUCGGAUCUGCACUUCCAG,-1.13
UCCUGUGCUACACAUCGUAUGUACCGAAUCGGGGUUUGGGGUUUGGGGAAAAAAAGGGGAAAGUAUUAUGUUACGCCGUUCGGAUCUGCA,1.78
